Measurements collected from several papers.
Each line is one published result; not all experiments were run side by side. Values joined by “and” are separate records of one study, mostly repeats; a detail may differ. ± marks the error that the study gave.
APP Aβ42 aggregates: Amyloid-beta precursor protein, Aβ42 aggregates (APP, Homo sapiens, UniProt P05067)
APP Aβ40 fibrils: Amyloid-beta precursor protein, Aβ40 fibrils (APP, Homo sapiens, UniProt P05067)
APP amyloid-beta aggregates: Amyloid-beta precursor protein, amyloid-beta aggregates (APP, Homo sapiens, UniProt P05067)

CN(C)c1ccc(-c2ccc3cc(OCC(O)CF)ccc3n2)cc1 (centres unmarked)  IC50 (Amyloid-beta precursor protein, amyloid-beta plaques (APP, Homo sapiens, UniProt P05067); binding, [3H]AV-45 displacement; Alzheimer's disease brain; together with: [3H]AV-45 10 nM): 53.7 nM and 56.2 nM
COCCOCCOCCOC(=O)C(C#N)=Cc1ccc(C=Cc2ccc(N(C)C)cc2)cc1  Kd (APP Aβ42 aggregates; binding, fluorescence titration; together with: pre-aggregated Aβ(1-42) 5.0 µM): 1400 nM
COc1cc(-c2nc3ccccc3s2)cc(CN2Cc3cccc(n3)CN(C)Cc3cccc(n3)C2)c1O  Ki (APP Aβ40 fibrils; Aβ fibril binding, ThT fluorescence competition; Cu complex of ligand, Aβ 2 µM, together with: thioflavin T 1 µM): 325 ± 25 nM
COc1cc(OC)c2c(O)c3c(=O)cc(C)oc3c(-c3c(O)cc4cc5c(c(O)c4c3OC)C(=O)CC(C)(O)O5)c2c1 (centres unmarked)  IC50 (APP (Homo sapiens, UniProt P05067); amyloid aggregation, inhibitor, fluorescence): 8100 nM
COc1cc(-c2nc3ccccc3s2)cc(CN(Cc2ccccn2)Cc2ccccn2)c1O  Kd (APP Aβ40 fibrils; binding to Aβ fibrils, fluorescence titration): 135 ± 25 nM
COCCOCCOCCOC(=O)C(C#N)=Cc1ccc2cc(N3CCCCC3)ccc2c1  IC50 (APP amyloid-beta aggregates; IgG-amyloid beta binding, inhibitor, ELISA; 50 % inhibition, together with: aggregated amyloid beta): 74000 nM and 74300 nM
CC(C)c1noc(-c2ccc(-n3cnc(C(=O)NCc4cccs4)c3)nc2)n1  Ki (Amyloid-beta precursor protein, amyloid-beta (APP, Homo sapiens, UniProt P05067); binding, competition binding; Alzheimer brain homogenate; together with: [3H]PiB): > 1000 nM
OC(Cc1cc(-c2ccc(C(O)C(F)(F)F)s2)sc1-c1ccc(-c2sc(-c3ccc(C(O)C(F)(F)F)s3)cc2CC(O)C(F)(F)F)s1)C(F)(F)F (centres unmarked)  Kd (Amyloid-beta precursor protein, Aβ40/Aβ42 aggregates (APP, Homo sapiens, UniProt P05067); Aβ40 Aβ42 fibril binding, fluorescence; 24 h aggregation, Aβ40:Aβ42 9:1): 750 nM
COc1ccc(-c2cc(=O)c3c(O)cc(O)c(-c4cc(-c5cc(=O)c6c(O)cc(OC)cc6o5)ccc4OC)c3o2)cc1  EC50 (Amyloid-beta precursor protein, Aβ42 fibrils (APP, Homo sapiens, UniProt P05067); amyloid-beta 1-42 disaggregation, thioflavin T fluorescence; 7 h, 37 °C, together with: 5 µM thioflavin T): > 10000 nM
CN(C)c1ccc(C=C(C#N)C(=O)OCC(O)CO)cc1 (centres unmarked)  Kd (APP Aβ42 aggregates; binding, fluorescence titration; together with: pre-aggregated Aβ(1-42) 5.0 µM): 3300 nM
COc1cc(C=CC(=O)CC(=O)C=Cc2ccc(OCC(=O)O)c(OC)c2)ccc1O  IC50 (APP amyloid-beta aggregates; binding, thioflavin T competition): 310 nM
COCCOCCOCCOC(=O)/C(C#N)=C/c1ccc2cc(N3CCOCC3)ccc2c1  Kd (APP Aβ42 aggregates; binding, fluorescence titration; 5% DMSO in water, together with: aggregated Abeta42 5 µM): 13800 ± 3100 nM
COc1cc(-c2nc3ccccc3s2)cc(CN2CCN(C)CCN(C)CC2)c1O  Ki (APP Aβ40 fibrils; Aβ fibril binding, ThT fluorescence competition; Cu complex of ligand, Aβ 2 µM, together with: thioflavin T 1 µM): 765 ± 30 nM
CNc1ccc(-c2nc3ccc(OCCCCCN4CCN5CCN(CC4)CC(=O)[O][Al]([F])[O]C(=O)C5)cc3s2)cc1  Ki (Amyloid-beta precursor protein, fibril (APP, Homo sapiens, UniProt P05067); ligand displacement, radioligand): 40.9 nM

Repeated from above:
COc1cc(-c2nc3ccccc3s2)cc(CN(Cc2ccccn2)Cc2ccccn2)c1O  Kd (APP Aβ40 fibrils; binding to Aβ fibrils, fluorescence titration): 135 ± 25 nM
